Results of several laboratories.
Numbered parts are unrelated; each lists some results of a single study. Positions count from the first letter of the parent shown.

Set 1 — method: protein binding microarray; molecule type: double-stranded DNA, one strand shown; matrix: in vitro; concentration: not given; relative to: not given; direction: higher = stronger binding
Target: Histone acetyltransferase KAT6A, winged helix 2, GST fusion (KAT6A, Homo sapiens, UniProt Q92794, residues 85-181)
Notes: 8-mer, flanks averaged, mean of 2 arrays, mostly near background
Residues (chain): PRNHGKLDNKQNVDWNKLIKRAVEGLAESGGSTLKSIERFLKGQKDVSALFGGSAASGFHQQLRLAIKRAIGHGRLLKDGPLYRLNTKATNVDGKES
| Sequence | E-score |
| --- | --- |
| GGGTAACC | -0.00449 |
| GGCAAGCC | 0.0112 |
| AAAACATT | -0.00766 |
| AGTTAACC | -0.0223 |
| GTTGACTA | -0.215 |
| CACACTCG | 0.0822 |
| CTTCCGCC | 0.163 |
| CAAAGCGC | 0.0664 |
| CACATGCC | 0.082 |
| GCCACCCA | 0.151 |
| ATTCCAGC | 0.0342 |
| ACCATCCT | -0.12 |
| GTAGCATA | 0.0177 |
| ACTCAGAT | -0.0412 |
| CTGGTGCC | 0.022 |
| ACAAAACA | 0.0864 |
| CGTGACAA | -0.0788 |
| CAAACACG | -0.035 |
| GACCTATC | -0.0214 |

Set 2 — method: RNA Bind-n-Seq; molecule type: RNA; matrix: in vitro; concentration: 365 nM; relative to: no-protein control; direction: higher = stronger binding
Target: RNA binding protein fox-1 homolog 2, RRM domain, GST-SBP tag (RBFOX2, Homo sapiens, UniProt O43251-10, residues 100-194)
Notes: natural RNA segment, single round, ends assumed
Shared flanks, not repeated: GGGAGUUCUACAGUCCGACGAUC … UGGAAUUCUCGGGUGCCAA
Residues (chain): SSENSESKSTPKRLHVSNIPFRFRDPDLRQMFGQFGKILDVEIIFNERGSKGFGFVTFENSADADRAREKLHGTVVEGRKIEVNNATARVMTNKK
| Sequence | RBNS enrichment (R) |
| --- | --- |
| UAUUGUGGGAGAGUCACUUUAAAGACUGUGCUAGUUGGAAACAGAGCUGUUGCUGUUGUCAGUCGAGUGCAGUUUUCUGCAGCGAUGUCAUAAGGAGUCAGAUUCCGUGA | 0.443 |
| UAAAUGAAGGGCCAGCAUAUAUACUUGCAAGAUAAUUUUCAGCUGCAAGGAUUCAGCACCAGUUAUGUUUGAAUGAACCCUCCUUUUCUCUGAGAUUCUGGUCCCUGGAA | 0.803 |
| CCGUUGUGGAAAUUAUUGGAAUUAACUGAGCCAAAGUGAUUAUGCAUUCUUCAUCUAUUUUAGUUAGCACUUUGUAUCGUUAUAUACAGUUUACAAUACAUGUAUAACUU | 1.11 |
| GCGUCCCCUUCCUCGGGUGAGCCUGGCCUGUCCCGUUCAGCCGUUGGGCCCAGGCUUCCUCCCCUCCAAGGUGAAACACUGCAGUCCCGGUGUGGUGGCUCCCCAUGCAG | 0.328 |
| UGCCUUGGCUUUUCUCCCCUUCUCAUUCUCCUCUCCCCUUUCCUCACUGAAGGCUGUGAGUUGCUUUCAAUGUGACAACACUAUGAUGUCAUUUGGAAGGAUUUGCCAGG | 0.445 |
| GAACAUGUGAAUUGCUGGUUAGUAGGUGGUAUGCCUUGGGCACAUGUCACAUCUAAAUGCUGCUGGUCGAUACUUUAUCAUUCCACAAACAUUUAUUCACUUCCAAAUAU | 0.505 |
| CAAAGGCGAGAGGUUUUUCUUCCUGGCCCCCCAGUGUGGGUUUCUUCCUGUGAACUCACUCUGUGCCCCUGUUGUCCACAGGAUUCCAGUCUCCUGUUCUCAGUCAGGCU | 0.238 |
| GGGAGCAGCUGCAGCCCCUGACUUGUCUGGGGGGAUGUUUAGGAUAUGACAGAGGUUAGAGUCAGUACUGUUGGCGUAAGGAUUUCAUCUUUGGAACACAGGGUAUGCCU | 0.955 |
| GGGCUAGUCUUUCCUGAAUUCUAAUUUUGUUGCUCUGGAAGUGUUAACUGUGAUCCAGUACCUGUAAUACAGGAACACACAAUGUAUAUGGGGAAGCCCUUUGGCUUCAG | 0.528 |
| GGACACUGUGUGACGUCAGCAUCUCAGACAGGCAGGAGAAAAGCACCAGAUACCUGGCUUUCCAUGGUGUGAGCAUUCAGACUGAGAUUAGAACCGCAAUGCAGGCUUGG | 0.906 |
| GCUGGCAGUAGCUGUCCCAGCCUCAGCUCCUGGCCCGGUCCUGGGGUUCCCUCUUCACAGUCCCCGUUCCCACACUUCCUCCACCAUCACUCACUCACUGGUGCUGGCCU | 0.811 |
| AAGGGACUUGCCUAAAGCCACCCAGCAACUCAGCAGCAGAACCAAGAUGGGCCCCAGGCUCCUCCAUAUGGCCCAGGGCUUACCACCCUAUCACACGUGGCCUUGUCUAG | 0.267 |

Set 3 — method: DHFR PCA, deep sequencing; matrix: yeast; added: (+)-ABA 0.11 µM; relative to: wild-type fitted maximum; direction: higher = stronger binding
Target: ABI1, truncated, D143A, DHFR fusion (Arabidopsis thaliana)
Notes: methotrexate growth selection, single substitutions
Starting sequence: PYL1, truncated, DHFR fusion (Arabidopsis thaliana); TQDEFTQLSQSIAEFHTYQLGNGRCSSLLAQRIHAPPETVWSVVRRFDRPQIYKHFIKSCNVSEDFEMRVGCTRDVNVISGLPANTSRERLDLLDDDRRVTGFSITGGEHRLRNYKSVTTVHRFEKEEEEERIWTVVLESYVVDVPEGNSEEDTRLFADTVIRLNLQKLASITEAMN
| Substitution | relative binding score [%] |
| --- | --- |
| V70C | -1.29 |
| S87G | -2.49 |
| R32L | 34.3 |
| P36V | -4.62 |
| V142H | 3.7 |
| H16Y | -9.44 |
| H16C | 0.943 |
| K126T | 57.8 |
| L93N | -7.02 |
| F66Q | 14.3 |
| V76E | 0.0461 |
| L166P | 14.7 |
| F56D | -5.38 |
| N114T | -4.22 |
| E174G | -1.31 |

Set 4 — target: CCNB3, cyclin fold, Cln2 fusion (human); method: yeast growth competition, sequencing; matrix: yeast; notes: weak parent motif; relative to: not given; direction: higher = stronger binding
Starting sequence: DNAH7 docking peptide (human); HELFQRLDFDNDG; partner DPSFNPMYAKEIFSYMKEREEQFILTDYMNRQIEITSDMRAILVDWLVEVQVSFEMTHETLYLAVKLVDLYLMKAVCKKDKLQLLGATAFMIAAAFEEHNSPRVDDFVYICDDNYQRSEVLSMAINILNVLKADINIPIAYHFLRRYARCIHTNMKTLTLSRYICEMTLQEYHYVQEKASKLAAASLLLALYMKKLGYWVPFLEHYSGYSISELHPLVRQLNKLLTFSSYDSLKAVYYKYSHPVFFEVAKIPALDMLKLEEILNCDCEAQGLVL
| Substitution | normalised enrichment score |
| --- | --- |
| HELFQRLDFDNAG [D12A] | 0.47 |
| HELFQRLDFANDG [D10A] | -0.0945 |
| HELFQRADFDNDG [L7A] | -0.234 |
| AELFQRLDFDNDG [H1A] | 0.344 |
| HELFQRLDADNDG [F9A] | -0.0582 |
| HELAQRLDFDNDG [F4A] | -0.0769 |

Set 5 — method: protein-binding microarray; molecule type: double-stranded DNA, one strand shown; matrix: in vitro; concentration: not given; direction: higher = stronger binding
Target: Protein C-ets-1 (ETS1, Homo sapiens, UniProt P14921, residues 1-441, K379A, full length assumed)
Notes: k-mer, scored over probes, only values ≥0.25
Residues (chain): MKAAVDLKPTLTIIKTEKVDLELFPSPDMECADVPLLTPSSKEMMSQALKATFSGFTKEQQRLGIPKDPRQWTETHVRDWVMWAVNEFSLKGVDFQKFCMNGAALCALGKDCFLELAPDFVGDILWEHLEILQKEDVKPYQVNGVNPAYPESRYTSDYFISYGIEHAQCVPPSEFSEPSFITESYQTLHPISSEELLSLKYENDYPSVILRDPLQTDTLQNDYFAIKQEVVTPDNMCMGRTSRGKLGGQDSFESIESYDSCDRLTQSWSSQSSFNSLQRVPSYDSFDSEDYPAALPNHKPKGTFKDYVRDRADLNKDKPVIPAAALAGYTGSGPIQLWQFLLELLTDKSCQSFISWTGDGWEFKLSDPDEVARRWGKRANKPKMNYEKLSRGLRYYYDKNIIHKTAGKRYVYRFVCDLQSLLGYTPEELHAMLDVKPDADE
| Sequence | E-score |
| --- | --- |
| CGCCGCCA | 0.268 |
| GTTCGAAC | 0.254 |
| AATATGAA | 0.257 |
| CCACCGGC | 0.353 |
| AATTGACG | 0.26 |
| ATAGCGAC | 0.266 |
| CCGGGGCG | 0.377 |
| CCGGGAAA | 0.323 |
| CCCCGGAG | 0.304 |
| GTATATGA | 0.271 |
| GACGGAAA | 0.251 |
| GATGTTGC | 0.309 |
| ACGTCATG | 0.252 |
| AACCGACG | 0.351 |
| ATTATCAC | 0.272 |
| GCCGGTAA | 0.406 |
| ACTACAAC | 0.271 |
| CGACATTA | 0.272 |
| AACCGGTG | 0.323 |
| CGGCGGTA | 0.301 |
| GAAAATTA | 0.26 |
| AGTATATG | 0.273 |
| AGCCCCGG | 0.353 |

For quick reference, copied from above (set 3):
| Substitution | relative binding score [%] |
| --- | --- |
| N114T | -4.22 |
| V70C | -1.29 |
| K126T | 57.8 |
| E174G | -1.31 |
| L93N | -7.02 |
| R32L | 34.3 |
| V142H | 3.7 |
